Experimental data of several laboratories.
± marks the error that the study gave.

| Compound | test | system | setting | solubility |
| --- | --- | --- | --- | --- |
| Oc1cc(O)c2c(c1)OC(O)(c1ccc(O)c(O)c1)C(O)C2 (stereo not drawn) | – | aqueous buffer | – | > 100 µM |
| CC[C@H](C)[C@H](NC(=O)[C@H](C)N)C(=O)N[C@H](C(=O)NCC(=O)N[C@@H](CC(C)C)C(=O)N[C@@H](CCSC)C(=O)N[C@H](C(=O)NCC(=O)NCC(=O)N[C@H](C(=O)N[C@H](C(=O)O)C(C)C)C(C)C)C(C)C)[C@@H](C)CC | filtration | sodium phosphate buffer | 200 µM nominal, pH 7.4 | 196 ± 1 µM |
| C[C@](N)(Cc1ccc(O)c(O)c1)C(=O)O | – | supercritical carbon dioxide | 5 h, 313 K, 12 MPa, density 719.2 kg/m3 | 85.6 µg/mL |
| O=c1cc(-c2cccc3c2Sc2ccccc2S3)oc(N2CCOCC2)c1 | – | equimolar phosphoric acid, 5% DMSO, 10% encapsin | pH 4 | 1000 µg/mL |
| COc1ccc2c(c1)c(CC(=O)O)c(C)n2C(=O)c1ccc(Cl)cc1 | in vitro lipolysis | digested blank lipid formulation | 24 h, pH 6.5, 37 °C | ~1100 µg/mL |
| CCc1ccccc1-c1ccc2c(c1)C1(Nc3ccccc3C(=O)N1c1ccc(C)cc1)C(=O)N2C (stereo not drawn) | dried DMSO stock | PBS | pH 7.4 | 0.2 ± 0.1 µM |
| CC(=O)O[C@H]1C(=O)[C@@]2(C)[C@H]([C@H](OC(=O)c3ccccc3)[C@]3(O)C[C@H](OC(=O)[C@H](OC(=O)OCc4cc(P(=O)(O)O)ccc4OP(=O)(O)O)[C@@H](NC(=O)c4ccccc4)c4ccccc4)C(C)=C1C3(C)C)[C@]1(OC(C)=O)CO[C@@H]1C[C@@H]2O | – | HBSS | 30 s, pH 6.5 | > 49000 µg/mL |
| CC(C)CCn1c(CN2CCN(C(=O)C3CC3)CC2)nc2c1c(=O)n(C)c(=O)n2C | – | aqueous buffer | pH 7.4 | > 60 µg/mL |
| CSc1cc(C)nc(SC)c1NC(=O)CN1CCN(CCSc2nc3ccccc3[nH]2)CC1.Cl | – | 0.01 N HCl aqueous | 24 h, pH 2.3 | 3240 µg/mL |
| CC(/C=C/C=C(\C)C(=O)O)=C\C=C\C=C(C)\C=C\C=C(/C)C(=O)O | shake-flask | FaSSGF | 1 h, pH 1.6, 37 °C | < 0.5 µg/mL |
| O=c1c2cc(O)c(O)cc2oc2cc(O)c([C@@H]3O[C@H](CO)[C@@H](O)[C@H](O)[C@H]3O)c(O)c12 | – | Tween 80 | – | 35000 ± 3740 µg/mL |
| CCCCCCCCCc1nc2cc(Cl)ccc2c(=O)n1N | equilibrium, HPLC-UV | 2% PEG400 + 2% polysorbate 80 in water | >24 h, 37 °C | 231 ± 3.08 µg/mL |
| CCCCC(CC)COC(=O)CC(C(=O)OCC(CC)CCCC)S(=O)(=O)O.CN(C)C(=N)N=C(N)N (stereo not drawn) | – | Capryol 90 (propylene glycol monocaprylate) | – | > 200 mg/g |
| CN1C(=O)C2(Nc3ccccc3C(=O)N2Cc2cccnc2)c2cc(Br)ccc21 (stereo not drawn) | dried DMSO stock | PBS | pH 7.4 | 20 ± 1.2 µM |
| NC(=O)c1[nH]c2ccc(Cl)cc2c1S(=O)(=O)c1ccccc1 | – | 10% w/v M-β-CD in water | 120 h, ambient | 45.1 µg/mL |
| Oc1ccc(/C=C/c2cc(O)cc(O)c2)cc1 | shake flask | alcohol | 25 °C | 88000 µg/mL |
| C=CC[C@@H]1/C=C(\C)C[C@H](C)C[C@H](OC)[C@H]2O[C@@](O)(C(=O)C(=O)N3CCCC[C@H]3C(=O)O[C@H](/C(C)=C/[C@@H]3CC[C@@H](O)[C@H](OC)C3)[C@H](C)[C@@H](O)CC1=O)[C@H](C)C[C@@H]2OC | shake flask | 20% w/v nicotinamide solution | 3 days, 37 °C | 159 ± 8.89 µg/mL |
| CN(C)C(=O)c1cc2cnc(Nc3ccc(N4CCNCC4)cn3)nc2n1C1CCCC1 | – | acetate buffer | 24 h, pH 4.5, 37 °C | > 2400 µg/mL |
| COc1cc2c(cc1OC)CN(CCc1ccc(NC(=O)c3cccc4c(=O)c5cccc(OC)c5[nH]c34)cc1)CC2 | – | Cremophor EL microemulsion | 24 h, 37 °C | 4200 ± 200 µg/mL |
| CN1C(=O)C2(Nc3ccccc3C(=O)N2Cc2ccco2)c2cc(Br)ccc21 (stereo not drawn) | dried DMSO stock | PBS | pH 7.4 | 4 to 16 µM |
| C=CC[C@@H]1/C=C(\C)C[C@H](C)C[C@H](OC)[C@H]2O[C@@](O)(C(=O)C(=O)N3CCCC[C@H]3C(=O)O[C@H](/C(C)=C/[C@@H]3CC[C@@H](O)[C@H](OC)C3)[C@H](C)[C@@H](O)CC1=O)[C@H](C)C[C@@H]2OC | – | menthol/camphor eutectic microemulsion | – | > 10000 µg/mL |
| Cc1ccc(N2C(=O)c3ccccc3NC23C(=O)N(C)c2ccc([N+](=O)[O-])cc23)cc1 (stereo not drawn) | dried DMSO stock | PBS | pH 7.4 | 1.8 ± 0.3 µM |
| COc1cnc(-n2cnc(C)n2)c2[nH]cc(C(=O)C(=O)N3CCN(C(=O)c4ccccc4)CC3)c12 | – | aqueous buffer | 90 min, pH 7.4, 5% DMSO, prepared at 500 µM | < 47.3 µg/mL |
| CC(=O)O[C@@]12CO[C@@H]1C[C@H](O)[C@@]1(C)C(=O)[C@H](O)C3=C(C)[C@@H](OC(=O)[C@H](O)[C@@H](NC(=O)OC(C)(C)C)c4ccccc4)C[C@@](O)([C@@H](OC(=O)c4ccccc4)[C@H]21)C3(C)C | – | Miglyol 808 | 24 h, room temperature | 52100 ± 1500 µg/mL |
| COc1cc(/C=C/C(=O)CC(=O)/C=C/c2ccc(O)c(OC)c2)ccc1O | – | Transcutol HP | 48 h, room temperature | 141000 ± 3420 µg/mL |
| O=C(O[C@@H]1Cc2c(O)cc(O)cc2O[C@@H]1c1cc(O)c(O)c(O)c1-c1c([C@H]2Oc3cc(O)cc(O)c3C[C@H]2OC(=O)c2cc(O)c(O)c(O)c2)cc(O)c(O)c1O)c1cc(O)c(O)c(O)c1 | – | aqueous buffer | – | > 100 µM |
| COc1ccc(-c2cc(=O)c3c(O)c(OC)c(OC)c(OC)c3o2)cc1 | solvent injection method | 0.5% PVA aqueous solution | 72 h, 25 °C | > 6 µM |

Excerpt of the above:
| Compound | test | system | setting | solubility |
| --- | --- | --- | --- | --- |
| CN(C)C(=O)c1cc2cnc(Nc3ccc(N4CCNCC4)cn3)nc2n1C1CCCC1 | – | acetate buffer | 24 h, pH 4.5, 37 °C | > 2400 µg/mL |
